Measurements pooled from the literature.
Every numbered part comes from another study and shows a few of its results, in no order.

Set 1 — technique: RNA Bind-n-Seq; form: RNA; matrix: in vitro; tested at: not given; reference: input RNA pool; direction: higher = stronger binding
Target: RING finger protein unkempt homolog, zinc fingers 1-6, GST-SBP tag (UNK, Homo sapiens, UniProt Q9C0B0, residues 30-357)
UniProt Q9C0B0, sequence (30-357, looked up): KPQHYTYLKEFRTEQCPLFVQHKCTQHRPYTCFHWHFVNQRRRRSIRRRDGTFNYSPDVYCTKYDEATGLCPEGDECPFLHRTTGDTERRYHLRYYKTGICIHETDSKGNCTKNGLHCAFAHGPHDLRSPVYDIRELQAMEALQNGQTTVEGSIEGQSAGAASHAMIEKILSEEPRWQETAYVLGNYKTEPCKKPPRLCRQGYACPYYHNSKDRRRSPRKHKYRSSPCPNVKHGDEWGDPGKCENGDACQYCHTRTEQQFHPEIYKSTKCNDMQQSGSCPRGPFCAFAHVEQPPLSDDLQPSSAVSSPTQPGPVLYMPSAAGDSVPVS
Notes: RNA with constant flanks, human and mouse sites, ends assumed
The bound/input enrichment of `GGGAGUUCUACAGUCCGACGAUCUUGCUGAAAGGAGCUACGCUAAAAAAUACCGAGAAGAUAUAUGGAGUUGCUGUUUACACUGGAAUGGAAACCAAAAUGGCUUUGAACUACCAAGGGAAAUCUCAGAAACGUUCUGCUGUUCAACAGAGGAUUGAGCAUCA` is reported as 0.158 ratio.
With `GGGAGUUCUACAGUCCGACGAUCUCUCUUCUUACUCAUUACUGCAAAUUGAUUGUCUUUCCCCCCUCCCUCCAGUACCAUAAUCUUAGAGACAAACCUUAAAACAGCUGUUUUUAGGCUGUUCCUUGUACUCUUAGGAUAUUUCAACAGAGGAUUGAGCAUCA` the bound/input enrichment was 1.28 ratio.
The bound/input enrichment of `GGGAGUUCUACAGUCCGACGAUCGAUGACGAAACAGUUGAUAGCCUAGGACCCCUAGAGAAGGGACAAGUCAAAAACGAGGCUCUCAGAGAACUGAGAGUGGAACUCAGCCGGAAGCACCAGGCUCGGGGACUUGAUGGAUUCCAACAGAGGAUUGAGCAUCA` is reported as 0.278 ratio.
`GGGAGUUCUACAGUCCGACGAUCAAGAGGAAGAAGGUUAAGUUGGCUGUGCUGAAAUACUAUAAGGUGGAUGAAAAUGGCAAAAUUAGCCGACUUCGUCGAGAGUGUCCUUCUGAUGAAUGUGGUGCUGGAGUUUUCAUGGGACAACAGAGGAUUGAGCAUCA` has a bound/input enrichment of 0.249 ratio.
`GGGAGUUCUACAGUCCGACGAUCCCCAAGGACAGGUGGAAUAAUACCCCCAUGGAUGAAGCACUACACUUUGGACACCAUGAUGUUUUUAAAAUCCUUCAGGAAUACCAAGUUCAGUACACACCUCAAGGGGAUUCUGAUGAUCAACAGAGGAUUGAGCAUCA` has a bound/input enrichment of 0.143 ratio.
`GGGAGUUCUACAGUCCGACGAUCGCUGAAGAUGACAGCAAAAUAGAUUCAUGAAGUUUUUUGCCUCCCACGUUGGGAAGUCCUUAGUGAAGAAUUCUCCCAUGGGCCGUUCACUGUCCUUCUCCAGGCCCCUAUCUGUCCUCCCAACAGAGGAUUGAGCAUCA` gave a bound/input enrichment of 0.496 ratio.
`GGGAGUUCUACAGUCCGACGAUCAUAUAUCUCAAGCAAACCAAAAUAUGAUGCUCUUCUGCUUUGUUUUAUUCUAAAUUGUUGUAUCAUAUCUUUCUGAAACCAUUCUGAAUUUAGUUGAAAUUAUCAAUAUUUAUGCUUUUACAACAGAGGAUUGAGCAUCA` has a bound/input enrichment of 1.35 ratio.
For `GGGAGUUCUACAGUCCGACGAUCUAGAUAAUUCUUUUUAUUUUUUAUUUUUCCUUUCCCUCAAUCCUUUUUUAUUUUUAAAAAUAGUUCUUUUGUAAUGUGGUGUUCAAAAUGAAAAUUGAAUACUGGCACUCCAUCUCUUAGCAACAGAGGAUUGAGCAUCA`, the bound/input enrichment was 188 ratio.

Set 2 — technique: aptamer microarray, sandwich; form: DNA with 2'F-ANA; matrix: in vitro; tested at: 200 nM; together with: Cy3 exosite-II aptamer, 400 nM; direction: higher = stronger binding; strand: GGTTGGTGTGGTTGG
Target: Prothrombin, mature alpha-thrombin (F2, Homo sapiens, UniProt P00734)
Notes: whole 15-mer aptamer, many near background
Under “mean fluorescence intensity”, `2'F-ANA at 1 3 7 9 11 15` is recorded as 243 a.u.
For `2'F-ANA at 1 2 3 5 7 9 13 14 15`, “mean fluorescence intensity” read 44.8 a.u.
`2'F-ANA at 1 2 3 5 7 10 11 13 14`: “mean fluorescence intensity” 80.5 a.u.
Under “mean fluorescence intensity”, `2'F-ANA at 3 8 10 13` is recorded as 593 a.u.
`2'F-ANA at 1 3 5 7 12 13` — result for “mean fluorescence intensity”: 86.4 a.u.
For `2'F-ANA at 1 4 7 8 9 10 11 12 13 14 15`, “mean fluorescence intensity” read 142 a.u.
`2'F-ANA at 1 2 11 12 14 15` — result for “mean fluorescence intensity”: 89.1 a.u.
For `2'F-ANA at 1 4 7 8 10 12 14 15`, “mean fluorescence intensity” read 44.4 a.u.
For `2'F-ANA at 5 6 7 10 11 13`, “mean fluorescence intensity” read 54.9 a.u.
`2'F-ANA at 1 2 3 9 10 12` — result for “mean fluorescence intensity”: 120 a.u.
Under “mean fluorescence intensity”, `2'F-ANA at 2 3 4 6 10 11 12 13 14` is recorded as 145 a.u.
For `2'F-ANA at 2 5 8 10 12 13`, “mean fluorescence intensity” read 62.2 a.u.
`2'F-ANA at 1 2 3 6 8 9 10 11 13 14`: “mean fluorescence intensity” 55.3 a.u.
`2'F-ANA at 3 4 5 8 9 11` — result for “mean fluorescence intensity”: 98.9 a.u.
`2'F-ANA at 1 2 3 4 6 8 9 10 12 13 15` — result for “mean fluorescence intensity”: 65.7 a.u.
Under “mean fluorescence intensity”, `2'F-ANA at 2 4 5 7 8 9 11 13 15` is recorded as 53.3 a.u.
`2'F-ANA at 5 7 8 9 11 15` — result for “mean fluorescence intensity”: 75.6 a.u.
For `2'F-ANA at 1 2 5 7 8 9 12 14`, “mean fluorescence intensity” read 47.6 a.u.

Set 3 — technique: RNA Bind-n-Seq; form: RNA; matrix: in vitro; tested at: 365 nM; reference: no-protein control; direction: higher = stronger binding
Target: RNA binding protein fox-1 homolog 2, RRM domain, GST-SBP tag (RBFOX2, Homo sapiens, UniProt O43251-10, residues 100-194)
Notes: natural RNA segment, single round, ends assumed
Residues (chain): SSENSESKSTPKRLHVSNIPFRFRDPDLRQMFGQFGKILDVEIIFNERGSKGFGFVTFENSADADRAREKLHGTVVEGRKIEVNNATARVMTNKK
Under “RBNS enrichment (R)”, `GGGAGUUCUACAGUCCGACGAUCUUUUGCUCCCUAUUUUAUGCUUUUUAAAAAUCUUUCACAGUGACUCACUUGAUUGAGCAUAUUGAUUUGAAAGAGCUAAGAUUUUCCUGCUUAAUGUCAGCCAUUGGCUCUGGAAUUCUCGGGUGCCAA` is recorded as 0.399.
For `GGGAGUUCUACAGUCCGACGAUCGGGAAAUAUUACUUAUCCAUCAGGUUUCUCUUUGGUUUUUGUAAACGGAGAGGACAGUUCUUAGUCCAGUAAAAAUAUGCAGAUUGUAUGUAAUGAAUUUUUGUAAACAAUGGAAUUCUCGGGUGCCAA`, “RBNS enrichment (R)” read 0.939.
`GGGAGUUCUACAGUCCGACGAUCGUCGAUGUAUGAUGUUAGUGUUGUAAGACACCAUGGCAGAAUCUUCAUUAUUCUCACCUAUUCUGAACCCUGCAUCAUGUAUCUGGGAUGCCCCCUCCCAAGUCCACCAAUGGAAUUCUCGGGUGCCAA`: “RBNS enrichment (R)” 0.343.
Under “RBNS enrichment (R)”, `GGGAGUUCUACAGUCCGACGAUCUAUUGAAGAGUCCGCACACAUACUCACCCCUCUGGUGGGCCACAUGAGGACCUGCAUCUUGCAGAUGAUGUAGCAAGCCUUAGGAUGGUUCAUGAUCAGUAGGAAGCAAAUGGAAUUCUCGGGUGCCAA` is recorded as 0.665.
`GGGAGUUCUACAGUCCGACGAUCUGGAAAGGUAAUUUAUGAUUAACUUAGAUAAUAGGUAAAAGCGACCUUACAAAAAACAUAAUUAUCUAGGAGUCCCACAUACUGGACCUACCCUAUUAUACCUCCAAGAGUGGAAUUCUCGGGUGCCAA`: “RBNS enrichment (R)” 0.37.
`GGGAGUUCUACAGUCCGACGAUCCGCAUUUGUGUGUAUUAAUGCUGAAGAAUUAAAUGUUUAAAGAGUUUAAAUUUUGAAGGCGUUUGCUAUAUACAGUUGUCCUGCAUUAUUAUAAAGAGUUUUCAGGAAGUUGGAAUUCUCGGGUGCCAA`: “RBNS enrichment (R)” 0.783.
Under “RBNS enrichment (R)”, `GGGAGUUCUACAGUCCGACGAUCGCUUUCUGUGCAUGAACUAGAAAAGGAGACAUUAUAUUAAAUUAGCCACCUUUUGGCCCCUAAGCUCGCUUGUAAUGUGUCUUUCUUGGUGUCUUGCUGCCUUUCACUUUUGGAAUUCUCGGGUGCCAA` is recorded as 5.72.
For `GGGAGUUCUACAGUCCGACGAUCUGUUCUUUAAACUCUAGGAUCCAUCUUUGGACCAAAAGUCUGGUCUGGGCCUAGGAUGGCAUUGGCCCUCGAUGCUAGAGUUGGCUGCAUUCUCUCCUUACCUGCAGACUUGGAAUUCUCGGGUGCCAA`, “RBNS enrichment (R)” read 0.638.

Set 4 — technique: protein-binding microarray; form: double-stranded DNA, one strand shown; matrix: in vitro; tested at: 2540 nM top; notes: 60-bp whole probe; together with: salmon DNA 0.4 mg/ml; reference: random background probes; direction: higher = stronger binding; shared flanks, not repeated: GCCTAGCAC … GTCTTGATTCGCTTGACGCTGCTG
Target: Interferon regulatory factor 3, full length, phosphomimetic (IRF3, Homo sapiens, UniProt Q14653, residues 1-427, S386D/S396D/S398D/S402D/T404D/S405D)
Construct (chain): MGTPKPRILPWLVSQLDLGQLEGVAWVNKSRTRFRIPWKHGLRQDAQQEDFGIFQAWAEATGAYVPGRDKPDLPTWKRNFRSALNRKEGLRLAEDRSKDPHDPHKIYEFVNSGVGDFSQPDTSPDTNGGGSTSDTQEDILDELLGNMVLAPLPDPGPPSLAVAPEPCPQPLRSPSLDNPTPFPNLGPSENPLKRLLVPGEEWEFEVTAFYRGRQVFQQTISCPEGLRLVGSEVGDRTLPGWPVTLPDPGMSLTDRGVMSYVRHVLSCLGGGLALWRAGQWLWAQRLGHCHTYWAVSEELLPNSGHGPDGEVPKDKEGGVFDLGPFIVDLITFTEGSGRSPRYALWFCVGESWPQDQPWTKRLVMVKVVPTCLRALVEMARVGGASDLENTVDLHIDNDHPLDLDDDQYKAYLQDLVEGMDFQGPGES
For `TTAGAACTGAGTATCGCTTAGTGCTAG`, “fitted relative affinity” read 0.12 z-score.
For `CTAGGACTGGGGTTTCGGTTAGTGCTA`, “fitted relative affinity” read 2.36 z-score.
For `GACGAACTGAGTACCGAGACGTGCTAG`, “fitted relative affinity” read -0.0857 z-score.
`TTAGATATCAGTATCGATTGGTGCTAG`: “fitted relative affinity” 1.37 z-score.
For `CCCCCAGGATTCAATTACCAGTGCTAG`, “fitted relative affinity” read 0.253 z-score.
`TTAGGACTGGGGTTTCGGTGAGTGCTA`: “fitted relative affinity” 0.921 z-score.
For `GACGGACTGGGACTGGGCACGTGCTAG`, “fitted relative affinity” read -0.933 z-score.
`GACGATCTCGGGTATCGAGACGTGCTA`: “fitted relative affinity” 0.132 z-score.
For `TCAGCTCTGTGCATAGTACTGTGCTAG`, “fitted relative affinity” read -0.0438 z-score.
`GACGGTAGCGGGTTTCGGGACGTGCTA`: “fitted relative affinity” 1 z-score.
`TTAGAACTGAGGCTCGATTAGTGCTAG` — result for “fitted relative affinity”: -0.804 z-score.
For `TTAAATCTCAGTTTCGATTAGTGCTAG`, “fitted relative affinity” read 3.98 z-score.
`AATGAGGCACTGAGAGCAGAGTGCTAG`: “fitted relative affinity” -0.879 z-score.
For `CTTCTCCTCTAGGTTCTCTGAGTGCTA`, “fitted relative affinity” read 3.34 z-score.
For `CACAGGCTGCACAGAATGTAGTGCTAG`, “fitted relative affinity” read -0.285 z-score.
`TTAGATTTCAGTTCCGTTTAGTGCTAG` — result for “fitted relative affinity”: 4.11 z-score.
For `GGCGGACTGGGTTTCGGGACGTGCTAG`, “fitted relative affinity” read 0.779 z-score.
`TTTTTTTTACTTCGGGTGACGTGCTAG` — result for “fitted relative affinity”: 1.26 z-score.
Under “fitted relative affinity”, `GACGATTTCGGGACTGCAGACGTGCTA` is recorded as 1.94 z-score.

A few entries again (set 4):
`TTAGGACTGGGGTTTCGGTGAGTGCTA`: “fitted relative affinity” 0.921 z-score.
For `GACGGACTGGGACTGGGCACGTGCTAG`, “fitted relative affinity” read -0.933 z-score.
`GACGATCTCGGGTATCGAGACGTGCTA`: “fitted relative affinity” 0.132 z-score.
For `TCAGCTCTGTGCATAGTACTGTGCTAG`, “fitted relative affinity” read -0.0438 z-score.
`GACGGTAGCGGGTTTCGGGACGTGCTA`: “fitted relative affinity” 1 z-score.
`TTAGAACTGAGGCTCGATTAGTGCTAG` — result for “fitted relative affinity”: -0.804 z-score.
For `TTAAATCTCAGTTTCGATTAGTGCTAG`, “fitted relative affinity” read 3.98 z-score.
`AATGAGGCACTGAGAGCAGAGTGCTAG`: “fitted relative affinity” -0.879 z-score.
For `CTTCTCCTCTAGGTTCTCTGAGTGCTA`, “fitted relative affinity” read 3.34 z-score.
